Measurements from different studies.
Values joined by “and” are separate records of one study, mostly repeats; a detail may differ. ± gives the spread as reported.

Under “treatment-related adverse events”, `CCCCCCCCCCCCCCCC(=O)N[C@@H](CCC(=O)NCCCC[C@H](NC(=O)[C@H](CC(=O)O)NC(=O)[C@H](CO)NC(=O)[C@@H](NC(=O)[C@H](Cc1ccccc1)NC(=O)[C@@H](NC(=O)CNC(=O)[C@H](CCC(N)=O)NC(=O)[C@H](CO)NC(=O)[C@@H](N)Cc1c[nH]cn1)[C@@H](C)O)[C@@H](C)O)C(=O)N[C@@H](CO)C(=O)N[C@@H](CCC(=O)O)C(=O)N[C@@H](Cc1ccc(O)cc1)C(=O)N[C@@H](CC(C)C)C(=O)N[C@@H](CC(=O)O)C(=O)N[C@@H](CO)C(=O)N[C@@H](CCC(=O)O)C(=O)N[C@@H](CCCNC(=N)N)C(=O)N[C@@H](C)C(=O)N[C@@H](CCCNC(=N)N)C(=O)N[C@@H](CC(=O)O)C(=O)N[C@@H](Cc1ccccc1)C(=O)N[C@H](C(=O)N[C@@H](C)C(=O)N[C@@H](Cc1c[nH]c2ccccc12)C(=O)N[C@@H](CC(C)C)C(=O)N[C@@H](CCC(=O)O)C(=O)N[C@@H](C)C(=O)NCC(=O)NCC(=O)O)C(C)C)C(=O)O` is recorded as 0% (item: Tachycardia; humans CrCl 45 to 60 mL/min; subcutaneous, 100 µg single dose).
For `CC(=O)[C@H]1[C@H](C#N)C[C@H]2[C@@H]3CC=C4C[C@@H](O)CC[C@]4(C)[C@H]3CC[C@@]21C`, mRNA level read “increased” (qPCR, item: Cyp2c29; wild-type mice, liver; 10 mg/kg, 3 days; reference: vehicle).
With `CC(C)CC(=O)OC[C@H]1O[C@@](C#N)(c2ccc3c(N)ncnn23)[C@H](O)[C@@H]1O` the remaining compound was 63.5 ± 3.85% (dog whole blood; 5 µM, 15 min).
Under “mean corpuscular haemoglobin concentration”, `O=S(=O)(Nc1ccccc1)c1ccc(NC(=S)Nc2ccccc2)cc1` is recorded as 31.4 g/dL (mouse, male, blood; oral, 80 mg/kg daily, 14 days).
Under “sinus tachycardia incidence”, `COc1cc2c(Oc3ccc4[nH]c(C)cc4c3F)ccnc2cc1OCC1(N)CC1` is recorded as 0% (paediatric refractory sarcoma patients; 10 mg).
For `Cn1cc(-c2nc(N[C@@H]3CCCC[C@@H]3N)c(F)c3c2C(=O)NC3)cn1`, “hemorrhagic adverse events” read 33% (item: Hematuria; patients with relapsed or refractory AML; oral, 80 mg twice daily).
`CC(C)(O)c1cc(Nc2cc(Oc3cn(C4CC4)nc3C3CCOCC3)ccn2)ccn1`: “treatment-emergent adverse events” 0% (Thrombocytopenia; advanced cancer patients, dose escalation; oral, dose not given, 2 weeks on/off, all causality grade ≥3).
`COc1ccc(-c2c(-c3ccc(C#N)c(F)c3)nc(N3CCC(N)CC3)n(C)c2=O)cc1F` — result for “treatment-related adverse event incidence”: 0% (item: Constipation; relapsed/refractory marginal zone lymphoma patients; oral, 60 mg, any grade, dose expansion).
`O=C(CCCN1CCC(O)(c2ccc(Cl)cc2)CC1)c1ccc(Br)cc1` has an HC50 of > 128 µg/mL (haemolysis; sheep erythrocytes; 1 h, pH 7.5).
For `O=C(O)CCC(CP(=O)(O)O)C(=O)O` (stereo not drawn), the AUC(0-t) was 33.5 ± 6.1 µM·h (male NSG mice, C4-2 xenograft, plasma; intravenous, 3 mg/kg molar equivalent, 0.25 to 6 h).
`COc1ccnc(C(=O)N[C@H]2COC(=O)[C@H](Cc3ccccc3)[C@@H](OC(=O)C(C)C)[C@H](C)OC2=O)c1OCOC(=O)C(C)C` — result for “share of total radioactive residue”: 38 % TRR (wheat, grain; foliar, dose not given, phenyl label).
`Cc1cccc(Cn2nc(C3CC3)c3c(NC(=O)c4cnc5cc(OCCN6CCN(C)CC6)ccn45)cccc32)n1`: “all-cause adverse events” 21.1% (CTCAE v4.03, item: ALT increased; advanced solid tumour patients; oral, dose not given, all cohorts, added: pembrolizumab IV every 3 weeks).
`CC(C)n1c(C2CCNCC2)nc2c([N+](=O)[O-])c(Br)c(Br)cc21` — result for “adverse events any grade”: 49% (item: Nausea; AML patients; 125 mg).
For `COc1ncccc1-c1cnn2ccc(N3CCN(C(=O)OC(C)C)CC3)nc12`, “free drug concentration” read 28 nM (rat, CCI cold allodynia model, plasma; oral, 10 mg/kg, 240 min).
`C=CCNc1c(O)cc2c(O)c1C[C@@H](C)C[C@H](OC)[C@H](O)[C@@H](C)/C=C(\C)[C@H](OC(N)=O)[C@@H](OC)/C=C\C=C(/C)C(=O)N2` — result for “patients with fatigue TEAE”: 67% (unresectable or metastatic STS, GIST, other; intravenous, 225 mg/m^2).
For `O=C(O)CCCOc1ccc(F)cc1-c1cc(-c2ccccc2C(F)(F)F)n(-c2ccccc2)n1`, the organ weight was 23.8 ± 3.5 mg (item: thyroid; Crl:CD(SD) rats, male; iv, 25 µg/kg, 14 days).
The AUC(0-t) of `CN1CCN(S(=O)(=O)c2cc([N+](=O)[O-])ccc2N(CCOS(C)(=O)=O)CCOS(C)(=O)=O)CC1` is reported as 2.17 µM·h (naive female NSG mice, plasma; intraperitoneal, 10 mg/kg).
`C[C@@H](NC(=O)N1C(=O)[C@H](Cc2ccnc(N)c2)[C@H]1C(=O)O)C1CCCCC1`: “incidence of albuminuria” 12.5% (healthy adult Chinese volunteers; continuous intravenous infusion, 1.5 mg/kg/h, 5-day infusion, CTCAE 5.0 grading).
Under “AUC at NOAEL”, `C[C@H]1CN(C(=O)CC#N)[C@]12CCN(c1ncnc3[nH]ccc13)C2` is recorded as 1190 ng·h/mL (rat male; oral, 3 mg/kg repeated daily, 6 months, repeated-dose toxicity study).
Under “heart rate change”, `C[C@H]1COCCN1c1nc(NCc2cccnc2C(F)(F)F)c2cccnc2n1` is recorded as -12.7% (anaesthetized rat; intravenous, 10 mg/kg; reference: control).
`N=c1c2c(-c3ccccc3)c(-c3ccccc3)n(Cc3ccccc3)c2ncn1[C@H]1CC[C@H](O)CC1` gave a fu of 0.0101 (equilibrium dialysis; plasma, mouse, CD-1, pooled).
`CC(C)[C@@H]1CC[C@@H](C)C[C@@H]1O` has a direct bilirubin of 0.25 ± 0.09 mg/dL (acute oral toxicity OECD; Swiss albino mice, serum; oral, 1000 mg/kg).
For `CC(C)(c1ccccc1)c1cc(-n2nc3ccccc3n2)c(O)c(C(C)(C)c2ccccc2)c1`, the dermal uptake was 0.66 ng/kg body weight/day (exposure assessment; human, age 2-3 years, sunscreen).
Under “patients with serious AE”, `CC(=O)c1c(C)c2cnc(Nc3ccc(C4CCN(CCS(C)(=O)=O)CC4)cn3)nc2n(C2CCCC2)c1=O` is recorded as 33.3% (HR+/HER2- advanced breast cancer patients; oral, 100 mg).
The PCE/NCE ratio of `CCCC(CCC)NC(=O)c1ccc2c(c1)OCO2` is reported as 0.9 (Swiss albino CD-1 mice, male, bone marrow; intraperitoneal, 350 mg/kg, 36 h).
The donor concentration of `O=C(Nc1ccc2c(c1)B(O)OC2)c1ccc(Oc2ccccc2)cc1` is reported as 156 ± 8.5 µM (PAMPA; pre-coated trilayer membrane; 200 µM, 5 h, pH 7.4, donor plate, PBS).
For `CO[C@H]1C[C@@H]2CC[C@@H](C)[C@@](O)(O2)C(=O)C(=O)N2CCCC[C@H]2C(=O)O[C@H]([C@H](C)C[C@@H]2CC[C@@H](OC(=O)NCCOCCOCCOCCOCCOCCOCCOCCOCCC(=O)N3CCc4cc(Cn5nc(-c6ccc7oc(N)nc7c6)c6c(N)ncnc65)ccc4C3)[C@H](OC)C2)C[C@@H](O)[C@H](C)/C=C(\C)[C@@H](O)[C@@H](OC)C(=O)[C@H](C)C[C@H](C)/C=C/C=C/C=C/1C`, the TRAE incidence was 0% (phase 1 dose escalation, item: diarrhoea; advanced solid tumour patients; intravenous, 6 mg weekly, grade ≥3).
`O=S(=O)([O-])C(F)(F)C(F)(F)C(F)(F)C(F)(F)C(F)(F)C(F)(F)C(F)(F)C(F)(F)F.[K+]`: mRNA level “increased” (RT-qPCR, item: Cyp3a11; pair-fed mice, liver; dose not given).
For `CC1(C)C(C=C(Cl)Cl)C1C(=O)OC(C#N)c1ccc(F)c(Oc2ccccc2)c1` (stereo not drawn), “enzyme contribution to clearance” read 2.05% (item: CYP2C9; human, age 6 months, recombinant human CYP2C9; 0.1 µM).
`[O-][S+]1CCc2nc(N3CCC(c4ncc(Cl)cn4)CC3)nc(NC3(CO)CCC3)c21` (stereo not drawn) — result for “erythrocyte sedimentation rate”: 29.1 mm/h (item: mean; idiopathic pulmonary fibrosis patients, blood; 18 mg twice daily, at last treatment).
`NC(=O)[C@H]1CCN(c2ncnc(N)c2F)C[C@@H]1N1CCC[C@@H](Nc2cc(Cl)cc(C(F)(F)F)c2)C1=O`: “grade ≥3 bilirubin increase” 10% (B-cell malignancy patients; oral, 41 mg twice daily, dose).
`COc1cccc(Oc2ccccc2NC(=O)CNC(=O)c2cccc3ccccc23)c1` has a basophils of 2.8% and 0% (esterase-deficient SCID mice, male, blood; oral, 15 mg/kg/day, 14 days, toxicity study; reference: white cells).
Under “ALP serum activity”, `CCc1ccc(CC/C=C/c2ccc3c(c2)C(=O)CC3)cc1` is recorded as 269 U/L (Sprague-Dawley rat, male; oral, 120 mg/kg/day, 14 days).
For `C[C@]1(CO)Cc2ncn(-c3ccc(C#N)c(Cl)c3)c2C(=O)O1`, “subjects with drug-related headache” read 0% (human; 80 mg multiple doses, fasted).
The urea level of `COc1ccc2nc3cc(Cl)ccc3c(Nc3cc(CN4CCCC4)c(O)c(CN4CCCC4)c3)c2n1` is reported as 2.71 µmol/L (mouse, blood; intraperitoneal, 28 mg/kg).
`CC(C)C[C@H](NC(=O)[C@H](CCCCN)NC(=O)OCC1c2ccccc2-c2ccccc21)C(=O)N[C@H](C(=O)N[C@@H](Cc1ccccc1)C(=O)N[C@@H](Cc1ccccc1)C(=O)N[C@@H](CCCCN)C(=O)NCC(=O)N[C@@H](Cc1ccccc1)C(=O)N[C@@H](C)C(=O)N[C@@H](Cc1c[nH]c2ccccc12)C(=O)N[C@@H](CC(N)=O)C(=O)N[C@H](C(=O)N[C@H]1CSSC[C@@H](C(=O)N[C@@H](Cc2c[nH]cn2)C(=O)N[C@@H](CCCNC(=N)N)C(=O)N[C@@H](CCCNC(=N)N)C(=O)N[C@@H](C)C(=O)N[C@@H](CC(N)=O)C(N)=O)NC(=O)[C@H](C(C)C)NC(=O)[C@H](CCCNC(=N)N)NC(=O)[C@H](C(C)C)NC(=O)CNC(=O)[C@H](CC(N)=O)NC(=O)[C@H](CCCNC(=N)N)NC(=O)[C@H](Cc2ccc(O)cc2)NC(=O)[C@H](C(C)C)NC1=O)C(C)C)C(C)C` has an ALT of 47.3 ± 1.46 IU/L (ICR mice, serum; intraperitoneal, 10 mg/kg, day 5).
